Measurements pooled from the literature.
4'-phosphopantetheinyl transferase PptT: 4'-phosphopantetheinyl transferase PptT (Mycobacterium tuberculosis, UniProt O33336)
Sequence of UniProt O33336 (whole entry, looked up): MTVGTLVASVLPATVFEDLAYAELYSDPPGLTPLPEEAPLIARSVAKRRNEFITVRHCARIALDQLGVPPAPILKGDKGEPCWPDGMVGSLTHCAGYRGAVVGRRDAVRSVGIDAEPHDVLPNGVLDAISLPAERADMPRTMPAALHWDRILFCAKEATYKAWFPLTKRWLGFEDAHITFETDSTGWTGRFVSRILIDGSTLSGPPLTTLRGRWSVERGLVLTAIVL
Sequence of UniProt P23975 (whole entry, looked up): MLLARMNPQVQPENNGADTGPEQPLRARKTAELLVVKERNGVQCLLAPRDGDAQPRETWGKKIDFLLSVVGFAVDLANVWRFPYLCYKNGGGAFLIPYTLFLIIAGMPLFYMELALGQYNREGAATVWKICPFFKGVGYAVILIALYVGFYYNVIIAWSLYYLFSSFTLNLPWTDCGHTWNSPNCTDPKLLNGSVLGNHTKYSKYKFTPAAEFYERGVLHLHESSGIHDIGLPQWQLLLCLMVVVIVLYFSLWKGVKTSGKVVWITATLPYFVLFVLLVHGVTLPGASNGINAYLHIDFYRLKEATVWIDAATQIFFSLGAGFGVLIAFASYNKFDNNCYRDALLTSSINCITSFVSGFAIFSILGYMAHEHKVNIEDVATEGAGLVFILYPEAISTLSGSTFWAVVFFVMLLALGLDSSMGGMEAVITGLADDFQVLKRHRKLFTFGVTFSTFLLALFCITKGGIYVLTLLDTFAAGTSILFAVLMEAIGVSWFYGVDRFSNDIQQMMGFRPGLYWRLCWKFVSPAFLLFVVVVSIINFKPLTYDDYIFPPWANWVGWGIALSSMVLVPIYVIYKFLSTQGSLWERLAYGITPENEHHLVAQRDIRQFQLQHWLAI
Sequence of UniProt P41743 (whole entry, looked up): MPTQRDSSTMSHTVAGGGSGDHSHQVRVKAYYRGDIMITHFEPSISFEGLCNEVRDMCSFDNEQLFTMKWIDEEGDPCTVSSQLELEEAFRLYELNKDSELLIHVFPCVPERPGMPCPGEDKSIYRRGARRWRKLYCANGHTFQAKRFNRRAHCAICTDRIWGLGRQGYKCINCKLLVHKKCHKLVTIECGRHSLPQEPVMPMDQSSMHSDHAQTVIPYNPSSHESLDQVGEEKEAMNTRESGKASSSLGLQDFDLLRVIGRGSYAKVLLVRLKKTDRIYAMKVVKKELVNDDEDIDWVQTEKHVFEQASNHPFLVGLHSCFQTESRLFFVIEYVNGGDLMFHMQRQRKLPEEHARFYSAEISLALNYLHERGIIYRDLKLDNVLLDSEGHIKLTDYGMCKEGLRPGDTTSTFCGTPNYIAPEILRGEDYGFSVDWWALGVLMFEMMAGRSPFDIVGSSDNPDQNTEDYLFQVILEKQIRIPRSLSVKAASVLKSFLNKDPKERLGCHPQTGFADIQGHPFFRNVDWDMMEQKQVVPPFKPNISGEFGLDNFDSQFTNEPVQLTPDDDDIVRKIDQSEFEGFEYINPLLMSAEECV
Sequence of UniProt O43148 (whole entry, looked up): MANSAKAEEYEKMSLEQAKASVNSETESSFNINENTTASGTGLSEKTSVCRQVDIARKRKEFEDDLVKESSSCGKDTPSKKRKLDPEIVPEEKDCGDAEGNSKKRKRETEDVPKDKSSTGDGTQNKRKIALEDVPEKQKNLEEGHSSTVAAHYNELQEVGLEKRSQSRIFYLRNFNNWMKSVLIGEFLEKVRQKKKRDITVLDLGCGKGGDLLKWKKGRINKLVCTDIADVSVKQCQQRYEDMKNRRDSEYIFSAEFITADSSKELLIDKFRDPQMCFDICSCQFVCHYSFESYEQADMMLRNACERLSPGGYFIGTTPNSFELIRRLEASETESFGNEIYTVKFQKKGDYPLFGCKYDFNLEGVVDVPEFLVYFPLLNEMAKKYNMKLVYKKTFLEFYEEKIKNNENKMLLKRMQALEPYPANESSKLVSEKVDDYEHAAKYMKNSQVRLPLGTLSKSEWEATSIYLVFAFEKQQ
Sequence of UniProt P23458 (whole entry, looked up): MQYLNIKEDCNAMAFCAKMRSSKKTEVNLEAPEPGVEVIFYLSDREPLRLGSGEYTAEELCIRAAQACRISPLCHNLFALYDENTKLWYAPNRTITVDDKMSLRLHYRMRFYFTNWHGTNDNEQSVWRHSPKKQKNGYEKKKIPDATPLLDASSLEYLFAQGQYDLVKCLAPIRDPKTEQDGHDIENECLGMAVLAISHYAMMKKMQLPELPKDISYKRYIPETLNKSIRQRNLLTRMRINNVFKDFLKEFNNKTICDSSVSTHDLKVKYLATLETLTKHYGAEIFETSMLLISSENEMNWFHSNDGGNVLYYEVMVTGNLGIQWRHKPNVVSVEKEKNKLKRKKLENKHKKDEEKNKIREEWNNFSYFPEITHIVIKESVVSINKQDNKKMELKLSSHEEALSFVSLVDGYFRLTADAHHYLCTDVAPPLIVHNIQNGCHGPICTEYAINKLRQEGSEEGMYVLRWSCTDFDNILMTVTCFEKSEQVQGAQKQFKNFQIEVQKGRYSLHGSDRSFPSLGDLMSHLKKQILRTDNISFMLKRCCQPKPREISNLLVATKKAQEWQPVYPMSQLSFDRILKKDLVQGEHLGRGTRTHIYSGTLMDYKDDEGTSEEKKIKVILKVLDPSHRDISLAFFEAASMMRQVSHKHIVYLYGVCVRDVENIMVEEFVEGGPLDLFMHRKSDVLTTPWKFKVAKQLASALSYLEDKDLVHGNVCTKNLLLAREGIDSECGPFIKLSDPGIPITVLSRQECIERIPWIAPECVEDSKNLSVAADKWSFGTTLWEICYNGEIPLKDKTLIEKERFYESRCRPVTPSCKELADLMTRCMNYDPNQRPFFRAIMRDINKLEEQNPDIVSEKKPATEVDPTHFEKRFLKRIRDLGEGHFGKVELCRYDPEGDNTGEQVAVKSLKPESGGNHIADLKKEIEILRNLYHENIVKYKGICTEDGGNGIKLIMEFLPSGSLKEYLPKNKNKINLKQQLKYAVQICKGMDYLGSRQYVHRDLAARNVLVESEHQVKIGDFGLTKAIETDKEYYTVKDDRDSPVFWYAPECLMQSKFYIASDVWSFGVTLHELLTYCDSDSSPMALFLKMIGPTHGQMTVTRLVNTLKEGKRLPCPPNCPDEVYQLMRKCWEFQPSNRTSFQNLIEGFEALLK
Sequence of UniProt P25100 (whole entry, looked up): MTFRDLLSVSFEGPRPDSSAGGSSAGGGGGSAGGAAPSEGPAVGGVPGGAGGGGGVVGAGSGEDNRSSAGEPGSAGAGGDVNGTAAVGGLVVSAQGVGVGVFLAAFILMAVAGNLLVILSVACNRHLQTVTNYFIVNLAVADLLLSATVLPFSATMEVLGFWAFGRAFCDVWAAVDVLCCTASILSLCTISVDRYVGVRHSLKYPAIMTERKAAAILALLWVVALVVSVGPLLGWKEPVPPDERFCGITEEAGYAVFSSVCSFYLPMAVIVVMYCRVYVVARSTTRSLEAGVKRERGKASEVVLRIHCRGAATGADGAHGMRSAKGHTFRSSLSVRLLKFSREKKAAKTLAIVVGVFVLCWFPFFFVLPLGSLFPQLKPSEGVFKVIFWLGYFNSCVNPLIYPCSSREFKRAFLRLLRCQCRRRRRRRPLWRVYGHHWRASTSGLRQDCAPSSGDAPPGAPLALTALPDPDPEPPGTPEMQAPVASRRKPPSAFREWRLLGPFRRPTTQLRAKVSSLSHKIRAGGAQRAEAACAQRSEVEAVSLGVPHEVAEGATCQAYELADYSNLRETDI
Sequence of UniProt O60741 (whole entry, looked up): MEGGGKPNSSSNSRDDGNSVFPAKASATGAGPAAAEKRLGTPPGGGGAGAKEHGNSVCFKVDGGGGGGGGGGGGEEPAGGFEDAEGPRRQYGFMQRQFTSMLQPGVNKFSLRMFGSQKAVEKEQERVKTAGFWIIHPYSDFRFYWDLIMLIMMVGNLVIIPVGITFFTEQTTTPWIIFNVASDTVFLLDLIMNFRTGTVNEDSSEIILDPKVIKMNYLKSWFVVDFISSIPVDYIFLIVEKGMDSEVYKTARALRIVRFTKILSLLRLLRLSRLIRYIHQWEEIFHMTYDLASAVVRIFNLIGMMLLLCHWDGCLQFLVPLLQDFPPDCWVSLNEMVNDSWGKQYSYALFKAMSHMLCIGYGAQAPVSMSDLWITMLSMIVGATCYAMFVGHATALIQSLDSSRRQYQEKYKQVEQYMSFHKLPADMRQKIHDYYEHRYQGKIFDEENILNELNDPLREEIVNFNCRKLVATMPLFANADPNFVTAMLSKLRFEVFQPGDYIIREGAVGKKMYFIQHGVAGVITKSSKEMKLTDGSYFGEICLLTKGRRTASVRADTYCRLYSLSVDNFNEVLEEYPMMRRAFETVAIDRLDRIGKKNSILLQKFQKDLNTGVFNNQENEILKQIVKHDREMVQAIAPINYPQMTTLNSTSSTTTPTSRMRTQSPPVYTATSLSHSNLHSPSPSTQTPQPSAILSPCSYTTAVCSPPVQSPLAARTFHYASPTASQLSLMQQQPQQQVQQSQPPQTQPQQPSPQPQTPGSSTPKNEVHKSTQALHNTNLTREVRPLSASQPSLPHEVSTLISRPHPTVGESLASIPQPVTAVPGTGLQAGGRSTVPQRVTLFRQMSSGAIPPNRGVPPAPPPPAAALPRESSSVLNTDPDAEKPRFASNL
Sequence of UniProt P41595 (whole entry, looked up): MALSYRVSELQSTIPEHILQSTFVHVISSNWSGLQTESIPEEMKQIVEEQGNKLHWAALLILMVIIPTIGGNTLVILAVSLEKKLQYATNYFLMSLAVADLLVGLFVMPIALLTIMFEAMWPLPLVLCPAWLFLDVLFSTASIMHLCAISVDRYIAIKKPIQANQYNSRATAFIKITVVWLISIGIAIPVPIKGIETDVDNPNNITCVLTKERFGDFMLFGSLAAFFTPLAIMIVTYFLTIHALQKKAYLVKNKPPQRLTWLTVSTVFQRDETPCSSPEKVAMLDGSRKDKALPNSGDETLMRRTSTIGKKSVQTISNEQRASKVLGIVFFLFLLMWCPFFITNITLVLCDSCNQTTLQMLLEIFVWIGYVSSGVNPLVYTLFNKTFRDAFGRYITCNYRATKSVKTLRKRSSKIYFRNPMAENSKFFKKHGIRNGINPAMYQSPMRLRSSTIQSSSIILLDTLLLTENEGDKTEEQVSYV

Cc1nn(C)cc1-c1nc2c(N3CCN(Cc4ccc(Cl)cc4)CC3)c(Cl)cnc2[nH]1 — remaining binding (PIK3CA (Homo sapiens, UniProt P42336, E545K); binding, competition with immobilised ligand; 1 µM): 100%
C#Cc1n[nH]c2c(-c3cn([C@@H](C)c4ccccn4)c(=O)[nH]c3=O)cc(F)cc12 — inhibition (JAK1 (Homo sapiens, UniProt P23458); enzyme activity, inhibitor; 0.1 µM): 0.7%
c1cncc([C@@H]2CCCN2)c1 — inhibition (SLC6A2 (Homo sapiens, UniProt P23975); ligand displacement; 50 µM): 15.6%
Nc1ncnc2c1ncn2[C@@H]1O[C@H](C[C@@H](N)CC[C@H](N)C(=O)O)[C@@H](O)[C@H]1O — inhibition (RNMT (Homo sapiens, UniProt O43148); enzyme activity, inhibitor; 0.7812 µM): 27.5%
COc1cc(CCNC(C)c2ccccc2O)c(OC)cc1C#N (stereo not drawn) — EC50 (HTR2B (Homo sapiens, UniProt P41595); G protein activation, agonist, BRET): 7.6 µM
Cn1c(=O)c2[nH]cnc2n(C)c1=O — inhibition (Potassium/sodium hyperpolarization-activated cyclic nucleotide-gated channel 1 (Homo sapiens, UniProt O60741); ion current, inhibitor; 3 µM): 14%
CC(C)CC(=O)OC[C@H]1O[C@@](C#N)(c2ccc3c(N)ncnn23)[C@H](O)[C@@H]1O — inhibition (ADRA1D (Homo sapiens, UniProt P25100); cell-free assay; 20 µM): 1%
O=c1c2cc(Cl)ncc2[nH]c(=S)n1Cc1cccnc1 — IC50 (4'-phosphopantetheinyl transferase PptT; enzyme activity, inhibitor, FP): 4.93 µM
[2H]c1c([2H])c([C@]2([2H])CCCN2C(=O)C(C)(C)Oc2ccc3cn[nH]c3c2)c([2H])c([2H])c1C([2H])([2H])[2H] — remaining binding (PRKCI (Homo sapiens, UniProt P41743); binding, competition with immobilised ligand; 1 µM): 70%
Nc1ncc(-c2nc(N3CCOCC3)nc(N3CCOCC3)n2)c(C(F)F)n1 — remaining binding (Macrophage colony-stimulating factor 1 receptor, autoinhibited (CSF1R, Homo sapiens, UniProt P07333); cell-free assay, competition with immobilised ligand; 10 µM): 2.1%
COC(=O)OCc1cc2[nH]c(=S)n(Cc3cccnc3)c(=O)c2cc1Cl — IC50 (4'-phosphopantetheinyl transferase PptT; enzyme activity, inhibitor, FP): 16.5 µM
COc1ncccc1-c1cnn2ccc(N3CCN(C(=O)OC(C)C)CC3)nc12 — remaining binding (IRAK3 (Homo sapiens, UniProt Q9Y616); binding, competition with immobilised ligand; 1 µM): 88%

A few entries again:
COc1ncccc1-c1cnn2ccc(N3CCN(C(=O)OC(C)C)CC3)nc12 — remaining binding (IRAK3 (Homo sapiens, UniProt Q9Y616); binding, competition with immobilised ligand; 1 µM): 88%
